Measured values of several laboratories.
Each numbered part is a random draw from the data of one study; scales do not carry over between parts. Substitutions count along the parent as printed.

Block 1
Target: ABI1, truncated, D143A, DHFR fusion (Arabidopsis thaliana)
Method: DHFR PCA, deep sequencing
Sample: yeast
Notes: methotrexate growth selection, single substitutions
With: (+)-ABA 710 µM
Relative to: wild-type fitted maximum
Reading: higher = stronger binding
Starting sequence: PYL1, truncated, DHFR fusion (Arabidopsis thaliana); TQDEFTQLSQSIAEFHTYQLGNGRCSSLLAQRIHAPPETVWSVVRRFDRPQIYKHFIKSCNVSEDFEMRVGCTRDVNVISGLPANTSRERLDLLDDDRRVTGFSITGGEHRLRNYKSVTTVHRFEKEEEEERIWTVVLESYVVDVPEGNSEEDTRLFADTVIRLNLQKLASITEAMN; partner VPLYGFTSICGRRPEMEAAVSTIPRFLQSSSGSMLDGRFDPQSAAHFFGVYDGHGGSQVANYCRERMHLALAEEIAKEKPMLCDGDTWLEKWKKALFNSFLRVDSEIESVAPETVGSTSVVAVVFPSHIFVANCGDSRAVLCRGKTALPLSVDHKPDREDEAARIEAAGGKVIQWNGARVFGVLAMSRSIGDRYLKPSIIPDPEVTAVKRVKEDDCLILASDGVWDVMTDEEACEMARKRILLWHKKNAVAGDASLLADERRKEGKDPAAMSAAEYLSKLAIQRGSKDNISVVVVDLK
| Change | relative binding score |
| --- | --- |
| E151G | 97.7% |
| R123L | 103% |
| S42N | 113% |
| I79V | 106% |
| E109L | 93.5% |
| T101Y | 99.6% |

Block 2
Target: CCNB1, cyclin fold, Cln2 fusion (human)
Method: yeast growth competition, sequencing
Sample: yeast
Notes: weak parent motif
Relative to: not given
Reading: higher = stronger binding
Starting sequence: GMNC docking peptide (human); KNAKRNLSSEFAN
| Change | normalised enrichment score |
| --- | --- |
| L7T | 0.649 |
| E10I | -0.0957 |
| N6F | 0.0615 |
| F11E | -0.0212 |
| S8D | 0.228 |

Block 3
Target: Fragile X messenger ribonucleoprotein 1, C-terminal low-complexity region (Fmr1, Mus musculus, UniProt P35922)
Method: RNA Bind-n-Seq
Form: RNA
Sample: in vitro
Tested at: 200 nM
Notes: whole 134-nt RNA, ends assumed
With: 150 mM KCl
Relative to: input library
Reading: higher = stronger binding
| Strand | log2 enrichment |
| --- | --- |
| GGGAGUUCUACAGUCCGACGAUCGUCCUGUGCUACACAUCGUAUGUACCGAAUCGGGGAGGGGAAAGGGGUUUUUUUGGGGAAAGUAUUAUGUUACGCCGUUCGGAUCUGCACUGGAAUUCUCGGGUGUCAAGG | 0.562 |
| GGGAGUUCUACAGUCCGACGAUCGUCCUGUGCUACACAUCGUAUGUACCGAAUCGGCCCCCCGGCCCCCCGGGGCCCCCCGGAAAGUAUUAUGUUACGCCGUUCGGAUCUGCAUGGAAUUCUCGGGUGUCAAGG | -0.173 |
| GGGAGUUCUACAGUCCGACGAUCCACAGGCAACACGCACCCACACAGACACAGAGGGAAGGGGUUGGGAUGGGGACAGGGUGCACAGCAGGGCGGGGUAGGACCCCAGCCCCUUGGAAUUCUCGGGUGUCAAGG | 1.24 |
| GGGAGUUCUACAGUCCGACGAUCAGUCCUGUGCUACACAUCGUAUGUACCGAAUCGGGCCCCCGGCCCCCGGCCCCCGGGGAAAGUAUUAUGUUACGCCGUUCGGAUCUGCACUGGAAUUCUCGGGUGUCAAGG | -0.429 |
| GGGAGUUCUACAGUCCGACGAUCUGCAGGGUCUGGGUAGCAGCUGGGCUUCCAGCUUUCUCCUUGCACCUGACUUGGGCUUUUUUCUCCUCACAGGAUGGGCCUUGACGGCAUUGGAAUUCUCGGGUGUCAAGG | -0.451 |
| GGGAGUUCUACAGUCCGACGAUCUGGGAGGUGGAUUUGGUUUAUUUUUUUAGCUCAUUUCCAGGGGUGGGAAUUUUUUUUUAAUAUGUGUCAUGAAUAAAGUUGUUUUUGAAAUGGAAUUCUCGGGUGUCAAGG | 0.17 |
| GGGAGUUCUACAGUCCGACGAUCGACUCUGAAGAAGAAGCUAUGGAGACUACACCAGCCAAAGGAAAGAAAGCUGCAAAAGUUGUUCCUGUGAAAGCCAAGAACGUGGCUGAGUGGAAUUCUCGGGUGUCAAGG | -1.43 |
| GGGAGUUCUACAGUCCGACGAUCUAACUUUAGAGGAGGAUCUGAUGGAUAUGGCAGUGGACGAGGAUUUGGGGAUGGCUAUAAUGGGUAUGGAGGAGGACCUGGAGGUGGCAAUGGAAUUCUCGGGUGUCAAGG | 0.257 |

Single results of other studies
| Substance | target | test | system | setting | scale | endpoint | result |
| --- | --- | --- | --- | --- | --- | --- | --- |
| PhoQ, residues 284 288 289 292 302 303 ALVSVA | PhoP, residues 12 14 15 18 19 DLLYY (Escherichia coli, UniProt P23836) | Sort-seq, measured: YFP reporter | E. coli | PhoQ-PhoP variant library, with: 10 µM Mg2+ | relative to: high Mg2+ state, higher = stronger signaling | fold induction | 3.66 |

Excerpt of the above (block 1):
| Change | relative binding score |
| --- | --- |
| R123L | 103% |
| S42N | 113% |
